# Experimental data collected from several papers.
# Each numbered part is a random draw from the data of one study; scales do not carry over between parts. Positions count from the first letter of the parent shown.

# Series 1 — method: aptamer microarray, sandwich; form: DNA with 2'F-ANA; sample: in vitro; concentration: 200 nM; together with: Cy3 exosite-II aptamer, 400 nM; direction: higher = stronger binding; strand: GGTTGGTGTGGTTGG
# Target: Prothrombin, mature alpha-thrombin (F2, Homo sapiens, UniProt P00734)
# Notes: whole 15-mer aptamer, many near background
Modification,mean fluorescence intensity
2'F-ANA at 1 2 6 15,177 a.u.
2'F-ANA at 1 5 6 11 13,64.5 a.u.
2'F-ANA at 1 5 6 7 9 10 12 14,42.6 a.u.
2'F-ANA at 1 5 6 7 8 9 10 11 13 14 15,48.6 a.u.
2'F-ANA at 2 7 8 9 10 11 14 15,83.6 a.u.
2'F-ANA at 1 3 4 6 8 9 15,216 a.u.
2'F-ANA at 2 3 4 6 7 9 13 14,216 a.u.
2'F-ANA at 1 7 8 11 12 13,308 a.u.
2'F-ANA at 2 3 5 6 7 10 11 12 13,53.5 a.u.
2'F-ANA at 1 4 10 11 15,64.3 a.u.

# Series 2 — method: RNAcompete; form: RNA; sample: in vitro; concentration: 20 nM; notes: 7-mer, probes averaged, single round; baseline: mean of 7-mers; direction: higher = stronger binding
# Target: PABPC1L2, full length, GST fusion (mouse, UniProt A0ABA7IW68)
# Residues (chain): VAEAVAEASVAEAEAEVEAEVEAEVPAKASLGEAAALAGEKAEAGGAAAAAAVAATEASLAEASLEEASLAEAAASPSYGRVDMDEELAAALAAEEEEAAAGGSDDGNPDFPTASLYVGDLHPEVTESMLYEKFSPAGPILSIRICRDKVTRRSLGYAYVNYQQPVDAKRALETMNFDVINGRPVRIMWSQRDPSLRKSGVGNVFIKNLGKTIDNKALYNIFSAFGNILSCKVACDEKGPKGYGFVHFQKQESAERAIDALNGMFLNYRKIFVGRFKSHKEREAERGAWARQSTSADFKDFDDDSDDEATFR
Strand,7-mer Z-score
ACCCGUU,-0.315
CCGCGUA,-0.209
UGACAGU,-0.15
GGUAACU,-0.146
UCUUCGG,-0.378
GUUACAU,-0.128
UGUACCU,-0.329
AAUUCCU,-0.124
AGUCGUC,-0.454
CAGGGCA,0.331
AGGUAAG,0.0823
CCCGUAA,-0.0228
UUUUUUG,-0.11
UGUCACA,-0.0772
CUUCCCC,-0.409
AGAUCCA,-0.0863
CAGUCUA,-0.141
CCUCAGG,-0.222
UGCGGAG,0.109
GCAUGAU,0.0406
UGGCAUA,-0.0337
CUGACGA,-0.0826
CUGAGCA,-0.0101
UCGCGAU,-0.298
AUGCACC,-0.0663

# Series 3 — method: DHFR PCA, deep sequencing; sample: yeast; together with: (+)-ABA 0 µM; baseline: wild-type fitted maximum; direction: higher = stronger binding
# Target: ABI1, truncated, D143A, DHFR fusion (Arabidopsis thaliana)
# Notes: methotrexate growth selection, single substitutions
# Parent: PYL1, truncated, DHFR fusion (Arabidopsis thaliana); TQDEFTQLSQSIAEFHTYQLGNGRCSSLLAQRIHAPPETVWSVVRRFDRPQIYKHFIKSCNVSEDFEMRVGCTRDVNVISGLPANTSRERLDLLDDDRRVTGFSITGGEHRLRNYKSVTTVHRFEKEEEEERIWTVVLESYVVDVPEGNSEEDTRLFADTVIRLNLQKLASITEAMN; partner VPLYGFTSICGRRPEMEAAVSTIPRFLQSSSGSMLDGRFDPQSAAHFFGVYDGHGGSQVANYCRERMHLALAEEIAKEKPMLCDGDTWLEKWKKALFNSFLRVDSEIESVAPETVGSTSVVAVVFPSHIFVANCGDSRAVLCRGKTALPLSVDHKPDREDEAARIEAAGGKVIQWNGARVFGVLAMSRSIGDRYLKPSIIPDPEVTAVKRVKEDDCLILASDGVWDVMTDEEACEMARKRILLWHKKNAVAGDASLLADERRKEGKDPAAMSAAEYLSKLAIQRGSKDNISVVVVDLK
Change,relative binding score
E14H,3.22%
V143R,-2%
D96Q,-7.87%
Y53T,-2.84%
T135Y,-2.79%
T106I,66.4%
E129S,31.9%
A84R,8.04%
N165I,0.153%
G107P,-5.63%
L29G,-0.124%
R24S,5.92%
R74H,5.46%
D65A,6.17%

# Series 4 — target: ATF7, bZIP domain (human); method: DHFR protein complementation; sample: yeast; baseline: wild-type JUN-FOS pair; direction: higher = stronger binding
# Notes: single substitutions, most at no-binding floor
# Parent: JUN, bZIP domain (human); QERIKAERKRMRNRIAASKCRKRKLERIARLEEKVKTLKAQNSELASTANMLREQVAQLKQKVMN; partner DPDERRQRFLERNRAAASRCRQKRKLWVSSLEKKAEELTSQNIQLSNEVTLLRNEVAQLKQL
Change,binding fitness [natural log]
K39T,-0.756
S43N,-0.842
R30F,-0.808
A46K,-0.791
S47A,-0.688
Q41M,-1.01
E44V,-1.06
L45V,-1.41
K36T,-1.17
A29V,-1.07
E44H,-1.06
A49V,-1.04

# Series 5 — method: universal PBM; form: double-stranded DNA, one strand shown; sample: in vitro; concentration: not given; direction: higher = stronger binding
# Target: Sal-like protein 4, full length isoform B (SALL4, Homo sapiens, UniProt Q9UJQ4-2, residues 1-616)
# Notes: 8-mer, flanks averaged, mean of replicates
# Target sequence (chain): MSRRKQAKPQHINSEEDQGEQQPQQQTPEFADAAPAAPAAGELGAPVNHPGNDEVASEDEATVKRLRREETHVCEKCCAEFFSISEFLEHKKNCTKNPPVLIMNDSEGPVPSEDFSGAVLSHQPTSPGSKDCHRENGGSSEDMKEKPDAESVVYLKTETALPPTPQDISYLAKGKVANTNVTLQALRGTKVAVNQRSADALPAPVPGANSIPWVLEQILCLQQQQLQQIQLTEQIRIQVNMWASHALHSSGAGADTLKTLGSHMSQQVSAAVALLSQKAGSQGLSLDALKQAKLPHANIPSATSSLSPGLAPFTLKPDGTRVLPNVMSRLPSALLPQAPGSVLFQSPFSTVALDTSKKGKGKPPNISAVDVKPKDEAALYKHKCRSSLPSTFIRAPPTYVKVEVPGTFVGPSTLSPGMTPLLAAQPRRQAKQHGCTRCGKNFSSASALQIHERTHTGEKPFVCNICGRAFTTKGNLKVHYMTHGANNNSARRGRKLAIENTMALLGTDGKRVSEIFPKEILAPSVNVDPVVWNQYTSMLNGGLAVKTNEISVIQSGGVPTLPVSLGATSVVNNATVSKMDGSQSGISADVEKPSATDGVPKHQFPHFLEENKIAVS
Strand,E-score
GCGTCCTA,-0.244
AACCAAAA,0.132
CAATACGG,-0.116
GCTTAGCA,-0.127
AATGTCGG,-0.0581
GTAGCGTA,0.00839
CTAACGGA,0.00375
GATGAAGC,-0.0816
TCAACCGA,0.0106
ATGGTGAG,-0.113
ATTCGTAC,0.226
CCGTGATC,-0.188
TTCCAGAA,0.0177
AAAGGGGA,-0.186
CAAAGGGA,0.0301
GCCGGGCC,-0.399
GCCAGAAA,-0.0653
ACGATGTA,0.164
ACGATAGG,0.0817
CACTCGGA,-0.0469
ACACTAGG,-0.0303
CCCAGCCA,-0.142
CGGCTAAA,0.00832
TGAGTAAA,0.103
ACATAGCT,0.0936

# Series 6 — method: RNA Bind-n-Seq; form: RNA; sample: in vitro; concentration: not given; baseline: input RNA pool; direction: higher = stronger binding
# Target: RING finger protein unkempt homolog, zinc fingers 1-6, GST-SBP tag (UNK, Homo sapiens, UniProt Q9C0B0, residues 30-357)
# UniProt Q9C0B0, sequence (30-357, looked up): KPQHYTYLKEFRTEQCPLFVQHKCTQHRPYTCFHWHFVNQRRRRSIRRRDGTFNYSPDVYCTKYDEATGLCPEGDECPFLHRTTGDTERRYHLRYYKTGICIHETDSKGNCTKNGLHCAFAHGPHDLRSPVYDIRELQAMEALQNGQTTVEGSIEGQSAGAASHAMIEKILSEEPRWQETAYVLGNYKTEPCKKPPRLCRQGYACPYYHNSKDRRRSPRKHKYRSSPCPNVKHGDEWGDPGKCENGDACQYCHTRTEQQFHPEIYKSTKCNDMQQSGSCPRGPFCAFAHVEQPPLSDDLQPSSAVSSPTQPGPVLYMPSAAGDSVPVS
# Notes: RNA with constant flanks, human and mouse sites, ends assumed
# Constant ends, left off below: GGGAGUUCUACAGUCCGACGAUC … CAACAGAGGAUUGAGCAUCA
Strand,bound/input enrichment [ratio]
AAGAGGAAGCUGAUUGUUGACAGUGUCAAAGAAUUGGAUAGUAAGACCAUUAGAGCCCAGCUUAGCGAUUAUUCUGAUAUUGUUACGACUCUGGACCUGGCUCCGCCAACCAAGAAGCUU,1.12
GGCUACCUGGUCUCCGUGGAUGGCUACAUGAACAUGCAGCUUGCAAAUACAGAAGAGUACAUAGAUGGGGCGCUGUCUGGACAUCUGGGCGAAGUUCUAAUAAGGUGUAAUAAUGUCCUC,0.13
GAGAAGUGGUCAGUUGCUAAGGAAGUGGAUUUCCCAGUAGGGGUUUCUGCACCUCACCUGUAUAGUCGUUCUGCGCAUGUCCCCCACACAGUCCCCACUGUAUUUACCUGUUCUACUUGU,0.358
AUUGCAAGGAAGAUCAUUAAGGACGGUGAGCAACAUGAAGAUCUCAAUGAAGUAGCUAAACUCUUCAACAUUCAUGAAGAUUGAAUCCCAAUCGUGGAAUACACAAGCACUUUUCCAUCC,0.104
AUGGACUUACCAUUAAAUAUGAUACCAGCACAGAUUUUCCAGGAAAAGCUGCAGUGCUUUUUAGGUCAGCCAGUCUCUUUGACAAAAAAAAAUGAAAAGGGCUCAAAAUAUAAGCAAUUU,0.796
UUUUUUACAUUUUUUGGGCAGCAAUUUAAAUGUUAUGACUAUGUAAACUACUUCUCUUGUUAGGUAAUUUUUUUCACCUAGAUUUUUUUCCCAAUUGAGAAAAAUAUAUACUAAACAAAA,3.72
AAACUUCACUCAUCAUUUGAAUACAGUAUUUACAGAGGAUGUUUGAGUUGAGAGCUUUUUUAGGUUUGAGGGGCUUGAUUUUUUUGUAAAUAAAAUUAUGCUUUGUGGCUAUCCAUCAAC,0.248
GGUUGGAACUUGCAUUUGAAACAAAGUGCUGGCUUUUUUGAAGACUUGUGUAGGAACACAUUCAAAAAGCCCCUUUCUGGUUGUGAGAGAGGAAAAAAAAGUAUGGAGGCCUUAUUUUCA,0.17
AGUCCAAUAUCAAGCAUAUCUGCAGAUUCUUUCUAUGCAGAUAUUGAUCACCAUACUCCACGAAAUUAUGUCCUAAUUGACGACAUUGGAGAGAUCACCAAAGGAACAGCGGCAUUAAGC,0.235
CUCCUCUACAGAGCCACAAUGGCUCUGACGCUUGGUGGCACAGCCUAUGCCAUCUAUCUGUUAGCUAUGGCUGCAUUUCCCAAGAAGCAGAACUAAUGUCGUCAUCCCAGUCUUCACGUG,0.128
GUAUCGGGGCGGGGUGUGUGUGUGCAUGGAAGAUGCCUGGGCUGUCUUUGCUAUAUGUAAAUAGAGCCAUUGGAUCUUUAUUUUUGAUUAAUUUGUUCUGAUUUUUUGGUUUGUUUUUUA,0.832

# Series 7 — target: CCND3, cyclin fold, Cln2 fusion (human); method: yeast growth competition, sequencing; sample: yeast; notes: weak parent motif; baseline: not given; direction: higher = stronger binding
# Parent: CDC25A docking peptide (human); PPHRRRLLFACSP
Change,normalised enrichment score
PPHRRRYLFACSP [L7Y],0.137
PPHRRRLLFECSP [A10E],0.0869
PPHRRSLLFACSP [R6S],0.12
PPHRRRHLFACSP [L7H],0.111
PPHRSRLLFACSP [R5S],0.101
PPHRRRLLFACSF [P13F],0.101
PPHRRKLLFACSP [R6K],0.124
PPHMRRLLFACSP [R4M],0.0599
PPHRRRLNFACSP [L8N],0.125
PPGRRRLLFACSP [H3G],0.107
PPHRRNLLFACSP [R6N],0.171
MPHRRRLLFACSP [P1M],0.101
PPYRRRLLFACSP [H3Y],0.137
PPHVRRLLFACSP [R4V],0.21
PPHRRRLLFACFP [S12F],0.103
PPHRRRLIFACSP [L8I],0.134
PPHRRRLRFACSP [L8R],0.1
QPHRRRLLFACSP [P1Q],0.089
PKHRRRLLFACSP [P2K],0.119
PPHQRRLLFACSP [R4Q],0.172
PPARRRLLFACSP [H3A],0.0933
PPHRRRDLFACSP [L7D],0.0817
PPHRHRLLFACSP [R5H],0.164
PPHRRALLFACSP [R6A],0.0716

# For quick reference, copied from above (series 5):
Strand,E-score
CGGCTAAA,0.00832
AATGTCGG,-0.0581
CAATACGG,-0.116
GATGAAGC,-0.0816
TGAGTAAA,0.103
ACATAGCT,0.0936
AAAGGGGA,-0.186
ATTCGTAC,0.226
GCCAGAAA,-0.0653
TTCCAGAA,0.0177
ACGATAGG,0.0817
AACCAAAA,0.132
ATGGTGAG,-0.113
CCGTGATC,-0.188
TCAACCGA,0.0106
ACGATGTA,0.164
CAAAGGGA,0.0301
GCCGGGCC,-0.399
GCTTAGCA,-0.127
CACTCGGA,-0.0469
